Experimental data from different studies.
Every numbered part comes from another study and shows a few of its results, in no order. Positions count from the first letter of the parent shown.

Series 1 — method: DHFR PCA, deep sequencing; sample: yeast; with: (+)-ABA 17 µM; reference: wild-type fitted maximum; direction: higher = stronger binding
Target: ABI1, truncated, D143A, DHFR fusion (Arabidopsis thaliana)
Notes: methotrexate growth selection, single substitutions
Starting sequence: PYL1, truncated, DHFR fusion (Arabidopsis thaliana); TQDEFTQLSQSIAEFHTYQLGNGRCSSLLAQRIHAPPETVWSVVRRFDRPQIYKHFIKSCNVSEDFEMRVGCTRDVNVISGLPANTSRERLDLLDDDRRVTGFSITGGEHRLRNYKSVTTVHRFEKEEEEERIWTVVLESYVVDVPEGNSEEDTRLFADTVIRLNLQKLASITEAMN; partner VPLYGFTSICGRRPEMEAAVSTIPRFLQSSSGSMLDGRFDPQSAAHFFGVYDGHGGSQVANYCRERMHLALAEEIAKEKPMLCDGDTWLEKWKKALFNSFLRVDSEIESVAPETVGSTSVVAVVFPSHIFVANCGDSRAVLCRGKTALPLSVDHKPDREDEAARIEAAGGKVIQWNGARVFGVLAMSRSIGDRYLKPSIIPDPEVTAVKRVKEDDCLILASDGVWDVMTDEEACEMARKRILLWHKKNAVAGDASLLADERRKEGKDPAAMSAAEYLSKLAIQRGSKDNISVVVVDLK
For `D95Q`, “relative binding score” read 15.9%.
For `E139F`, “relative binding score” read 5.98%.
For `F157L`, “relative binding score” read 66.2%.
Under “relative binding score”, `E130P` is recorded as 98.7%.
`E152T`: “relative binding score” 73.9%.
For `C25N`, “relative binding score” read 4.87%.
Under “relative binding score”, `V161F` is recorded as 70.4%.
For `P146Q`, “relative binding score” read 10.2%.
Under “relative binding score”, `Q167I` is recorded as 66.4%.
Under “relative binding score”, `G71W` is recorded as 7.38%.
`A13R`: “relative binding score” 81.5%.
Under “relative binding score”, `E38K` is recorded as 38.3%.
For `G23N`, “relative binding score” read 81.6%.
For `L93M`, “relative binding score” read 72.9%.
`V44I`: “relative binding score” 70.8%.
For `R123G`, “relative binding score” read 98%.
Under “relative binding score”, `S150K` is recorded as 39%.
`I52E`: “relative binding score” 79.7%.

Series 2 — method: protein-binding microarray; molecule type: double-stranded DNA, one strand shown; sample: in vitro; tested at: 2200 nM top; notes: 60-bp whole probe; with: salmon DNA 0.4 mg/ml; reference: random background probes; direction: higher = stronger binding; constant ends, left off below: GCCTAGCAC … GTCTTGATTCGCTTGACGCTGCTG
Target: Interferon regulatory factor 7, full length, phosphomimetic (IRF7, Homo sapiens, UniProt Q92985, residues 1-503, S471D/S472D/S475D/S476D/S477D/S483D/S484D/S487D)
Chain of UniProt Q92985 (whole entry, unmodified, looked up): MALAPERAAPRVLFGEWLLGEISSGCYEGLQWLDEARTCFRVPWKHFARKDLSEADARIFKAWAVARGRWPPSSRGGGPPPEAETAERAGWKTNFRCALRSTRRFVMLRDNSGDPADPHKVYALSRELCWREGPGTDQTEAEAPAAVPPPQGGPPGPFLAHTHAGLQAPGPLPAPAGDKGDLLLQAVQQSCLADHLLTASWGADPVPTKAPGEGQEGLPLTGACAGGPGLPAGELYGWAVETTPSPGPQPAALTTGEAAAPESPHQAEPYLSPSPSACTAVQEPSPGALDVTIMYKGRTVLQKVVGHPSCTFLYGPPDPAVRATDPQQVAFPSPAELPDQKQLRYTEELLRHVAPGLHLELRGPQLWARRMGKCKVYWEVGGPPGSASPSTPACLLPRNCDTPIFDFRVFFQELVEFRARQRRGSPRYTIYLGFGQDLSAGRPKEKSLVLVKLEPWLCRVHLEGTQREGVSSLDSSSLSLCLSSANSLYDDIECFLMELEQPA
For `GTAGATTTCAGTTCCGATTAGTGCTAG`, “fitted relative affinity” read 2.33 z-score.
Under “fitted relative affinity”, `GACGATCTCCGACTGGAGACGTGCTAG` is recorded as -0.19 z-score.
`TCACCTTGAACTTTGGCACTGTGCTAG` — result for “fitted relative affinity”: 0.833 z-score.
For `TATCAGGGCATCCCCTTGAAGTGCTAG`, “fitted relative affinity” read -0.609 z-score.
For `TTAGGTCTGGGTATCGGTTAGTGCTAG`, “fitted relative affinity” read 0.342 z-score.
Under “fitted relative affinity”, `TACGGTTTCGACTATCGGGACGTGCTA` is recorded as 3.92 z-score.
For `GACTATATCAGACTGGAGACGTGCTAG`, “fitted relative affinity” read 0.171 z-score.
For `TTAGGTATCGGTTTCGGGTAGTGCTAG`, “fitted relative affinity” read 5.75 z-score.
`TTAGGACTGCTAATCCTTTAGTGCTAG`: “fitted relative affinity” -0.145 z-score.
`TGCAACATCTACAATGGCTTTGTGCTA`: “fitted relative affinity” -0.0825 z-score.
`TTAGGACTGGACGCTGGGTTAGTGCTA`: “fitted relative affinity” -0.735 z-score.
`TAAGGTATCGGGTATCGGTTAGTGCTA`: “fitted relative affinity” 0.225 z-score.
For `AATGGAACAAATATGTTTATGTGCTAG`, “fitted relative affinity” read -0.348 z-score.
Under “fitted relative affinity”, `TTCCAATTCTCTTTTCACTTGTGCTAG` is recorded as 3.24 z-score.
Under “fitted relative affinity”, `GACGGACTGGGGTATGGGGACGTGCTA` is recorded as -0.556 z-score.
For `GTCGGTATCCTTCTCCTGACGTGCTAG`, “fitted relative affinity” read 1.83 z-score.
`TTAGGTTCCGGTTTCGGTGAGTGCTAG`: “fitted relative affinity” 5.23 z-score.
`TCAATTCTCGGGACTCACACTGTGCTA`: “fitted relative affinity” 0.863 z-score.

Series 3 — method: RNA Bind-n-Seq; molecule type: RNA; sample: in vitro; tested at: not given; reference: input RNA pool; direction: higher = stronger binding
Target: RING finger protein unkempt homolog, zinc fingers 1-6, GST-SBP tag (UNK, Homo sapiens, UniProt Q9C0B0, residues 30-357)
Chain of UniProt Q9C0B0 (30-357, looked up): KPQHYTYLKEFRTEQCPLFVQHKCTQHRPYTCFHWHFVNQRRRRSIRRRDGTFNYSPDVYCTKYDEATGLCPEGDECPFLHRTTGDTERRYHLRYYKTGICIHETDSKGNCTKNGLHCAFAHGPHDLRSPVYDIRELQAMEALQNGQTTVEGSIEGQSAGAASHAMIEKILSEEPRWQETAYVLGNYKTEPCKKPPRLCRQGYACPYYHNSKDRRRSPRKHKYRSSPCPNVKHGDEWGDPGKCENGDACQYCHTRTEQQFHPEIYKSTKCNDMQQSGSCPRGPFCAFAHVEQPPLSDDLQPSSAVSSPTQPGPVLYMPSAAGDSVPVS
Notes: RNA with constant flanks, human-mouse chimeric sites, ends assumed
The bound/input enrichment of `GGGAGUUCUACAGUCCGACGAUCUCAUUUUGCUCGGGUUAUUCUUUCCUUUAGGAAAAGCCUAAAGAUUAGGUUGUAAGAAAAACAGAAGCCAUGUUUCGAAGACCUGUGUUACAGGUACUUCGUCAGUUUGUAAGACAUGAGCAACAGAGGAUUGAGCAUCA` is reported as 0.701 ratio.
For `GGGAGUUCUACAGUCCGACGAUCGAAUCCUACUCAGGCGGUCCCACAACAACCAAGCUCACAGCAGCAGCUCCAUAGUCACAGUAGGGUAGUUUUGGGGCUCUGUGGCCAGGGUUUUAUUCACAUGCAGGUUUGGAAAAUGUACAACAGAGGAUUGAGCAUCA`, the bound/input enrichment was 0.404 ratio.
The bound/input enrichment of `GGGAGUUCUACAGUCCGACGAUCUCCUUGGAACCCAGUCAUAUAGGUGACCUGCAAAAAGCAGACACCAGUAGUCAAGGUGCUUUAGUGUUUCUCUCAAAGGACUACGAAAUAGAAAAUCAAAAUCCCCUGGCCUCUCCUACGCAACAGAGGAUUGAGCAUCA` is reported as 2.78 ratio.
The bound/input enrichment of `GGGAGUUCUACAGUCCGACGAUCGAGUCGAGCAAACUUGAAACAAUUCGUUUUACAAAAACCUCAGUGUUCACUUGCUUGGCGAUAGCAUUGGGGUUUUAUAGGUUCUGGGGAAGUAGUAGACGAUGAUGCUGCCGCUGCUGCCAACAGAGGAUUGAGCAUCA` is reported as 1.13 ratio.
`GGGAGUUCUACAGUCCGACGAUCAGAAUCUUGGGACUGUUUUGCUUGAUUGGUCAUUGAUAGCUUAACAAACAUGGAGAUAAGAUUAGAAAUCUUGACAUCAACAGGUAUUAAGCAGAAAAAACCAUGGCCCAGAGUAUCCUGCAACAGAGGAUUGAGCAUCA` has a bound/input enrichment of 0.107 ratio.
The bound/input enrichment of `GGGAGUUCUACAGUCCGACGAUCAAAGAGAAACUAAAGCAAACUGAUUGAGAAGAGGAUUGCAAAGAGAAUUUCAUAGAGAAACUAGGAUUUAUUAGCAAACAUGAGUUAUAUUCCAGAGCGUCUCAGAAACCCCAGCCAAACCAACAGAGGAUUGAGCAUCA` is reported as 7.51 ratio.
The bound/input enrichment of `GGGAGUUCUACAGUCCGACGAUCGUACUGCAGCAGCAGGGAAAACUGCAGGAAGCUCUGAUGCACUAUAAGGAGGCUAUUCGAAUCAGUCCUACAUUUGCUGAUGCCUACUCUAAUAUGGGAAACACUCUAAAGGAGAUGCAGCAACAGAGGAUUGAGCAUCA` is reported as 0.251 ratio.
The bound/input enrichment of `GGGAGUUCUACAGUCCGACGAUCCACAGAGCAGCACCUACCCCCUCCUCCUUUCCACACCUGCAAACUCUUUUACUUGGGCUGAAUAUUUAGUGUAAUUACAUCUCAGCUUUGAGGGCUCCCUGUGGCAAAUACCCGGAUAAACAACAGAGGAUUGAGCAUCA` is reported as 1.3 ratio.

Series 4 — method: RNA Bind-n-Seq; molecule type: RNA; sample: in vitro; tested at: 200 nM; notes: whole 134-nt RNA, ends assumed; with: 150 mM LiCl; reference: input library; direction: higher = stronger binding; all molecules: 7-deaza-guanosine replaces G
Target: Ras GTPase-activating protein-binding protein 1, full length (G3BP1, Homo sapiens, UniProt Q13283)
Chain of UniProt Q13283 (whole entry, looked up): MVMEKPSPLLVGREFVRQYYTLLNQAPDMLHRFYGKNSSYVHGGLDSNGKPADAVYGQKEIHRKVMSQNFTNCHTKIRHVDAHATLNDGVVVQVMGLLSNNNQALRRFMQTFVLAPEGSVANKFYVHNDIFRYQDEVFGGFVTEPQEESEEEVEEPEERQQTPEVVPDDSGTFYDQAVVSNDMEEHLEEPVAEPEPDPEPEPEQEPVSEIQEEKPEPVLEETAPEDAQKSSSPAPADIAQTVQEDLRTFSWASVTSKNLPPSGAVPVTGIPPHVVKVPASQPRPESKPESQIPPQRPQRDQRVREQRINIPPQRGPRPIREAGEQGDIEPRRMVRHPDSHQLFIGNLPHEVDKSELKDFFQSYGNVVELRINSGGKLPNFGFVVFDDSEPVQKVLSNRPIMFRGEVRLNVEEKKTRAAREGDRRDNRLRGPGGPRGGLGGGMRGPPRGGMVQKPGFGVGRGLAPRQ
With `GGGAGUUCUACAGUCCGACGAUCAGUCCUGUGCUACACAUCGUAUGUACCGAAUCGGGGAAAAGGGGAAAAGGGAAAAGGAAAGUAUUAUGUUACGCCGUUCGGAUCUGCACUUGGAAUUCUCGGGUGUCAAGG` the log2 enrichment was -0.631.
For `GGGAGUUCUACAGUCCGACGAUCCAAGUCCUGUGCUACACAUCGUAUGUACCGAAUCAAACCCAAAUUUAAACCCAAAAAAGUAUUAUGUUACGCCGUUCGGAUCUGCACUUCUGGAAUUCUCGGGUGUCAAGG`, the log2 enrichment was 1.61.
The log2 enrichment of `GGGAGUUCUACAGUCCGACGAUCUGGUCCUGGUGGCAUGCGGGGAGGAAGAGGUGGCCUCAUGGAUCGUGGUGGUCCCGGUGGAAUGUUCAGAGGUGGCCGUGGUGGAGACAGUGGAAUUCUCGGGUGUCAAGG` is reported as 0.274.
For `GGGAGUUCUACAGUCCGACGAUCUUAAAACAUGGCAACUUGUAAUUGUUUUCUUUCUUAGGAACAUCAUUCAUGGCAGUGAUUCAGUAAAAAGUGCUGAAAAAGAAAUCAGCCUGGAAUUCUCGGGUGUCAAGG`, the log2 enrichment was -0.977.
For `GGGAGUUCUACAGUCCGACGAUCCUCAAGUCCUGUGCUACACAUCGUAUGUACCGAAUCGGGUGGGUUUGGGAGGGAAAGUAUUAUGUUACGCCGUUCGGAUCUGCACUUCCAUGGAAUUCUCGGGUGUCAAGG`, the log2 enrichment was 0.173.
With `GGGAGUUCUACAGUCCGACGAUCAGUCCUGUGCUACACAUCGUAUGUACCGAAUCGGAAAAAAAGGAAAAAAAGGAAAGGAAAGUAUUAUGUUACGCCGUUCGGAUCUGCACUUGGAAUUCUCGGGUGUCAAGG` the log2 enrichment was -1.5.
With `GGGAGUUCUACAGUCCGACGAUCAAGUCCUGUGCUACACAUCGUAUGUACCGAAUCGGUUUUUGGUUUGGUUUUUUUGGAAAGUAUUAUGUUACGCCGUUCGGAUCUGCACUUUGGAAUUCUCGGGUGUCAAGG` the log2 enrichment was -1.96.
The log2 enrichment of `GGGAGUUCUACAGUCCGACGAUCUGGGAGGUGGAUUUUGUUUAUUUUCUUAGCUCAUUUCCAGGGGUGGGAAUUUUUUUUUAAUAUGUGUCAUGAAUAAAGUUGUUUUUGAAAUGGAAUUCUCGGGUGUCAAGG` is reported as -0.738.
With `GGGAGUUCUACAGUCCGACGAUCUCAAGUCCUGUGCUACACAUCGUAUGUACCGAAUCGGCCCGGGGCCCGGCCCGGAAAGUAUUAUGUUACGCCGUUCGGAUCUGCACUUCCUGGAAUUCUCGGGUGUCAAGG` the log2 enrichment was -0.162.
For `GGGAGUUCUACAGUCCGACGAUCCCUCAAGUCCUGUGCUACACAUCGUAUGUACCGAAUCGGGUGGGUGGUGGGGAAAGUAUUAUGUUACGCCGUUCGGAUCUGCACUUCCAGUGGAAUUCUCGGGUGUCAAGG`, the log2 enrichment was -0.0787.
The log2 enrichment of `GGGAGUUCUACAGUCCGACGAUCUCCUGUGCUACACAUCGUAUGUACCGAAUCGUGUGUGUGUGUGUGUGUGUGUGUGUGUGUAAAGUAUUAUGUUACGCCGUUCGGAUCUGCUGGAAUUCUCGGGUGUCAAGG` is reported as -0.492.

Series 5 — target: CCNA2, cyclin fold, Cln2 fusion (human); method: yeast growth competition, sequencing; sample: yeast; notes: strong parent motif; reference: not given; direction: higher = stronger binding
Starting sequence: BRCA2 docking peptide (human); PSIKRNLLNEFDR; partner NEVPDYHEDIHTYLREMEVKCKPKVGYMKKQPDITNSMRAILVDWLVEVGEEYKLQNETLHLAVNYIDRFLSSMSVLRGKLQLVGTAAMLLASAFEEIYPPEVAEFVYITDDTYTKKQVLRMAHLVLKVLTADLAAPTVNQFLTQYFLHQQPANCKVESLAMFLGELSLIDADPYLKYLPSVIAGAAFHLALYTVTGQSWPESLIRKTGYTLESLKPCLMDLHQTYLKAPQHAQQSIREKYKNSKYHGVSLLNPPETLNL
`P1M`: “normalised enrichment score” 4.53.
`R5Q`: “normalised enrichment score” 1.11.
`I3C`: “normalised enrichment score” 6.69.
`R13A` — result for “normalised enrichment score”: 5.78.
Under “normalised enrichment score”, `D12E` is recorded as 5.23.
`R5A` — result for “normalised enrichment score”: 0.251.
`K4G`: “normalised enrichment score” 1.79.
`P1F`: “normalised enrichment score” 5.14.
Under “normalised enrichment score”, `F11D` is recorded as 0.317.
`P1D`: “normalised enrichment score” 4.67.
`E10P` — result for “normalised enrichment score”: 1.68.
For `R5W`, “normalised enrichment score” read 0.377.
For `N6R`, “normalised enrichment score” read 3.8.
For `L8F`, “normalised enrichment score” read 4.11.
For `L7Y`, “normalised enrichment score” read 0.93.
For `L8I`, “normalised enrichment score” read 4.66.
`R13G`: “normalised enrichment score” 5.02.
For `F11S`, “normalised enrichment score” read -0.384.
For `L7D`, “normalised enrichment score” read 0.343.
For `N6F`, “normalised enrichment score” read 1.97.
For `L8S`, “normalised enrichment score” read 2.69.
For `R13Y`, “normalised enrichment score” read 4.24.
`R5S` — result for “normalised enrichment score”: 0.734.
`K4S` — result for “normalised enrichment score”: 3.96.
Under “normalised enrichment score”, `F11W` is recorded as 0.676.

Excerpt of the above (series 5):
`R5Q`: “normalised enrichment score” 1.11.
`I3C`: “normalised enrichment score” 6.69.
`R13A` — result for “normalised enrichment score”: 5.78.
Under “normalised enrichment score”, `D12E` is recorded as 5.23.
